Measured values from different studies.
Every numbered part comes from another study and shows a few of its results, in no order. Positions count from the first letter of the parent shown.

Series 1
Target: ABI1, truncated, D143A, DHFR fusion (Arabidopsis thaliana)
Method: DHFR PCA, deep sequencing
Medium: yeast
Notes: methotrexate growth selection, single substitutions
With: (+)-ABA 0.39 µM
Relative to: wild-type fitted maximum
Reading: higher = stronger binding
Parent: PYL1, truncated, DHFR fusion (Arabidopsis thaliana); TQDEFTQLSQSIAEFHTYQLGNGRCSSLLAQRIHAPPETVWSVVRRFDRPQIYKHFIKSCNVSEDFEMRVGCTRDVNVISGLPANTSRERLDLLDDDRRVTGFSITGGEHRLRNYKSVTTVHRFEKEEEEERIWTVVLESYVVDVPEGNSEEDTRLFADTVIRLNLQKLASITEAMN
Variant	relative binding score
L164F	21.8%
D153A	-4.5%
D96H	-16.7%
S27R	2.6%
Q51D	43.5%
V136F	4.7%
Q167V	14.2%
Y141F	-6.15%
D97M	22.3%
I57Y	-9.2%

Series 2
Target: UBE2O UBC core domain (UniProt Q9C0C9)
Method: yeast two-hybrid
Medium: yeast
Notes: mostly zero background
Relative to: not given
Reading: higher = stronger interaction
B1: SYTL4 RING domain (UniProt Q96C24); chain RGSQHYSDRTCARCQESLGRLSPKTNTCRGCNHLVCRDCRIQESNGTWRCKVCAKEIELKKAT
B2: RNF121 RING domain (UniProt Q9H920); chain MPTKHLSDSVCAVCGQQIFVDVSEEGIIENTYRLSCNHVFHEFCIRGWCIVGKKQTCPYCKEKVDLKRMFS
B3: ZMIZ2 RING domain (UniProt Q8NF64); chain GTIPGTPGPNGEDGVEQTAIKVSLKCPITFRRIQLPARGHDCRHIQCFDLESYLQLNCERGTWRCPVCNKTALLEGLEVDQYMLGILIYIQNSDYEEITIDPTCSWK
B4: RNF19A RING domain (UniProt Q9NV58); chain ISKQIGDFIECPLCLLRHSKDRFPDIMTCHHRSCVDCLRQYLRIEISESRVNISCPECTERFNPHDIR
B5: MDM4 RING domain (UniProt O15151); chain MEDCQNLLKPCSLCEKRPRDGNIIHGRTGHLVTCFHCARRLKKAGASCPICKKEIQLVIKVF
B6: DTX2 RING domain (UniProt Q86UW9); chain EELKVPPDEDCIICMEKLSTASGYSDVTDSKAIGSLAVGHLTKCSHAFHLLCLLAMYCNGNKDGSLQCPSCKTIYGEKTGTQ
B7: RBCK1 RING domain (UniProt Q9BYM8); chain SLVLNTEPAECPVCYSVLAPGEAVVLRECLHTFCRECLQGTIRNSQEAEVSCPFIDNTYSCSGKLLEREIK
B8: DZIP3 RING domain (UniProt Q86Y13); chain PDEEEEEEEPCVICHENLSPENLSVLPCAHKFHAQCIRPWLMQQGTCPTCRLHVLLPEEFP
Residues (chain): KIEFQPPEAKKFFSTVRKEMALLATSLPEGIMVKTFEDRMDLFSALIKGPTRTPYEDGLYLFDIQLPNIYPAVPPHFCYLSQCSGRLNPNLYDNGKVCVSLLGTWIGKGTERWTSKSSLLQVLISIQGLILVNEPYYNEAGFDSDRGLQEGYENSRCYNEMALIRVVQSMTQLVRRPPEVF
Sequence	lacZ reporter activity
B1 (SYTL4 RING domain)	0
NLSELTPYILCSICKGYLIDATTITECLHTFCKSCIVRHFYYSNRCPKCNIVVHQTQPLY (PCGF6 RING domain (UniProt Q9BYE7))	0
B2 (RNF121 RING domain)	0
B3 (ZMIZ2 RING domain)	0
FDGDVDPDLKCALCHKVLEDPLTTPCGHVFCAGCVLPWVVQEGSCPARCRGRLSAKELN (PDZRN3 RING domain (UniProt Q9UPQ7))	0
B4 (RNF19A RING domain)	0
B5 (MDM4 RING domain)	0
B6 (DTX2 RING domain)	0
B7 (RBCK1 RING domain)	0
B8 (DZIP3 RING domain)	0

Series 3
Target: RNA binding protein fox-1 homolog 2, RRM domain, GST-SBP tag (RBFOX2, Homo sapiens, UniProt O43251-10, residues 100-194)
Method: RNA Bind-n-Seq
Form: RNA
Medium: in vitro
Tested at: 365 nM
Notes: natural RNA segment, single round, ends assumed
Relative to: no-protein control
Reading: higher = stronger binding
All sequences stand within: GGGAGUUCUACAGUCCGACGAUC … UGGAAUUCUCGGGUGCCAA
Residues (chain): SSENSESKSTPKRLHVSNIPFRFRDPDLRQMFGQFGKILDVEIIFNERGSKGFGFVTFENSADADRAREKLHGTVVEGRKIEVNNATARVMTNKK
Strand	RBNS enrichment (R)
CAUGCCUUCCCUGCUGGAUCAUUAUAUACAUUCAGAUUGUGAGUGGAUUGCCUUGGUUGACUUUUAAUUUAUUGUUUUUUGUUCUUAUAAAGAUGAUAAUCUUACCUUGC	0.783
CAUGACCUUGGAAGCUUUCUUCUCUCCAGAACAUUUGGAAAGGGGUAGAAGACCAUAUGGCUUACUUGUUCCAUAGCUCCAAGUGAGUCUGUAAUAAUGUUUGUGAAUCU	0.367
UGUUUCUUUCUUUUUCAUUUUGUGAAAAACUCCAUGUUAGUCCUCUUAGAUGACUGCUUAUUUAUGUGUAACAUAAAUCCCACAUAUUCUAAUGACAACUUCUUUAAUCC	0.339
CUCAUCAAAACUAAAGACAGCAAAAGGCUUGUCAGUGAUCUAAGGGUUUGUGAGCUCUCUGCUCUGUUUUUGCUGUUUACUGGACUUUGGUUUCUUUCAUAACCCAUUUC	1.07
UCUAACCGCAAUAGUGACUCUGUGCUUGUCUGUUUAGUUCUGUGUAUAAAUGGAAUGUUGUGGAGAUGACCCCUCCCUGUGCCGGCUGGUUCCUCUCCCUUUUCCCCUGG	1.04
UUAUCGUGAGGAAAAAGAAACUUCCUUUUGUUCACAUUUAGGACUCUCAGUGCCAUAUGAAGUAGCAAAAGGCAGUAUCGGCCAGAUCAGUGUUACAUUGAUUCUAAAAU	0.283
UCAGGCAAGUUUUUCCUCUGUUUUUAAUAUAUAACUAUAAUAUAUAUGAAUAGAUAAAUAUAACUAAUGUGCGUGAGAAUGGGCCUGGCACACCUGGGGUGCUCGGGGGU	0.809
UCCUUAGACAAUUAACCACCAAAUUCCCUGGGGUUCAUUGCCAUGCAGUUCAUUUCCCACUAACCAUGCAGGUGCACAUCACGGAAAUACCGGUUUAACUACUAGUGUGU	0.511
AUGUAUAAAAUUUAAAAAAACAGACUCCCAUUUCUUAAAAACGGAUAAGUUUGAAAGGAAACUGCUAUUGAACUUAAGCAUCUCUAGCAGAGCAAUUUGAUCAGUAUAUA	0.415
AAGCUGCUUGUUAACAUGGAAGACUUCUCCACUCUCCCUUAGUGAGAACAAAUACACACUUGACAUGGGAGCAAACUGGUUCUGAACUUUGUGACUGUUUGCUAGUGACG	0.467
AGUCAGGCAGCUCACACUGGACCAGUGUGGACCUUCCUUCCUCCCAUGGCAUGUGCAAGUAGGUCUGCGUGACCCCACUUCUGUGGUGCCGGCCUUACCUCGUCUUCAUC	0.6
GACUCCACCUUCCCAGACACCUACUUUAAGGACCUGUGGAAACUGGGUGAUCCAAUUAUAGGGCUGGGGCAACCCUGCUUUGGCCACCCUCAUUUACAAACUUAGGUUGG	0.323

Series 4
Target: BATF, bZIP domain (human)
Method: DHFR protein complementation
Medium: yeast
Notes: single substitutions, most at no-binding floor
Relative to: wild-type JUN-FOS pair
Reading: higher = stronger binding
Parent: JUN, bZIP domain (human); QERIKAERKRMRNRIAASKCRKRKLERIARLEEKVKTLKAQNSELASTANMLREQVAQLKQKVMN; partner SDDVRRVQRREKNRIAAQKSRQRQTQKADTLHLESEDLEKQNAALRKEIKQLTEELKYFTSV
Variant	binding fitness
S43H	0.00572 natural log
A29R	-0.078 natural log
L45M	-0.27 natural log
L45G	-1.27 natural log
I28H	0.00959 natural log
L52F	-0.632 natural log
Q55L	-0.272 natural log
L52Q	-0.8 natural log
I28S	-0.07 natural log
N42T	-0.639 natural log
L38N	-0.907 natural log
R53H	-0.377 natural log
A29Y	-0.199 natural log

Series 5
Target: CCNB2, cyclin fold, Cln2 fusion (human)
Method: yeast growth competition, sequencing
Medium: yeast
Notes: weak parent motif
Relative to: not given
Reading: higher = stronger binding
Parent: RB1 docking peptide (human); PKPLKKLRFDIEG
Variant	normalised enrichment score
E12D	0.188
L4M	0.708
G13E	0.159
F9R	0.12
L4A	0.594
K6D	0.322
L4I	1
K5A	-0.227
P3T	0.355
P3Y	0.546
K5T	0.223
G13D	0.3
K6W	-0.0643
D10R	1.02
K6P	-0.0295
K2R	0.324
L4N	0.368
K2H	0.186

A few entries again (series 4):
Variant	binding fitness
L52F	-0.632 natural log
A29R	-0.078 natural log
L45G	-1.27 natural log
L38N	-0.907 natural log
